Experimental data of several laboratories.
Numbered parts are unrelated; each lists some results of a single study. Substitutions count along the parent as printed.

Study 1 — method: DHFR PCA, deep sequencing; medium: yeast; with: (+)-ABA 0.032 µM; reference: wild-type fitted maximum; direction: higher = stronger binding
Target: ABI1, truncated, D143A, DHFR fusion (Arabidopsis thaliana)
Notes: methotrexate growth selection, single substitutions
Starting sequence: PYL1, truncated, DHFR fusion (Arabidopsis thaliana); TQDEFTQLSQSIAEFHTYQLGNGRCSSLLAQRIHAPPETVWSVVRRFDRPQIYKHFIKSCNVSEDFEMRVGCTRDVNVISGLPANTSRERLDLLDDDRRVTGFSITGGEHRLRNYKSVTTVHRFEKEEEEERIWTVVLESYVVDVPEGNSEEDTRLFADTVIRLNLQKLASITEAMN
| Variant | relative binding score |
| --- | --- |
| L29V | 31.1% |
| N22M | 13.5% |
| D153A | -3.44% |
| V136F | 3.49% |
| D97M | 9.21% |
| Y141F | -1.33% |
| R88Y | 9.89% |
| Q51D | 24.3% |
| T173E | -2.24% |
| T106H | 2.15% |
| R98F | 3.77% |
| A158G | 3.15% |
| R163M | 25.2% |
| D96H | -0.97% |
| E152I | 3.27% |
| I57Y | -1.77% |
| Q167V | 1.85% |
| H110R | 17.3% |
| S27R | 3.63% |

Study 2 — target: CCND2, cyclin fold, Cln2 fusion (human); method: yeast growth competition, sequencing; medium: yeast; notes: weak parent motif; reference: not given; direction: higher = stronger binding
Starting sequence: CDAN1 docking peptide (human); RGARSQLFPPTEA; partner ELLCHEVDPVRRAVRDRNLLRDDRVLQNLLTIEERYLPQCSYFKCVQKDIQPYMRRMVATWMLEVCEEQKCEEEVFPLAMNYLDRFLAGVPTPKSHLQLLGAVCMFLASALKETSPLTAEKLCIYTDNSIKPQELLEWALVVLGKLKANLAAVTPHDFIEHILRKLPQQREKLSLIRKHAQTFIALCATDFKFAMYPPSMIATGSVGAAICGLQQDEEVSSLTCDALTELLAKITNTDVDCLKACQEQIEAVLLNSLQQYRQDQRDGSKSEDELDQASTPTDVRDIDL
| Variant | normalised enrichment score |
| --- | --- |
| L7A | 0.098 |
| R4A | -0.0476 |
| F8A | 0.131 |
| T11A | -0.0636 |
| R1A | -0.0608 |
| E12A | 0.342 |

Study 3 — method: EMSA with sequencing; molecule type: double-stranded DNA, one strand shown; medium: in vitro; tested at: 10 and 20 nM; reference: negative control set to 0; direction: higher = stronger binding
Target: Hepatocyte nuclear factor 3-alpha (Foxa1, Mus musculus, UniProt P35582, residues 1-468, full length assumed)
Notes: whole designed probe, mean of two concentrations, ends assumed
Construct (chain): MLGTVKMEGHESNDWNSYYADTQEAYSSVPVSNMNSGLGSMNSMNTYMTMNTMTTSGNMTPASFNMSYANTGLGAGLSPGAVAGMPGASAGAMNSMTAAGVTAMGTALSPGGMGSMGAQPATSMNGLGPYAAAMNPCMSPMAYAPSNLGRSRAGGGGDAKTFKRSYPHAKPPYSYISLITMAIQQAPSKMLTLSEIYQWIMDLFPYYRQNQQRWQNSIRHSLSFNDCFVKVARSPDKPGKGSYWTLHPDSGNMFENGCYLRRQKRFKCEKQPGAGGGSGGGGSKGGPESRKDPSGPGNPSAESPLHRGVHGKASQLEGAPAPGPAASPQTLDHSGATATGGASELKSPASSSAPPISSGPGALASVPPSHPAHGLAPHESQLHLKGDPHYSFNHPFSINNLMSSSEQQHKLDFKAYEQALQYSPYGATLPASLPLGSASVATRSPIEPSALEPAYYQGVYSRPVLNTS
| Sequence | normalised bound fraction |
| --- | --- |
| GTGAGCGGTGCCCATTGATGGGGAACAAATGTAAAACTGCTGAAAAGATAAGAAGAAATGAATAAATCTATAATTAAGACGGAAATCTTTAATAGGCCATAGGCCTCAGGAGTCCTCAAAGTAAACAAAAAATGCACAAGCATGCTTATCTTAAAGGATTAAATAGGTATTTTTAAAATATTGATTTAATACACATGTAGAACTATTAAGTAACAAAATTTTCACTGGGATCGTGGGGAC | 0.512 ratio |
| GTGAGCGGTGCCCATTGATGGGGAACTAAATAGCTGTCTGTGGGAGAGATGACACTGTTGCTATTCAGTGGACTCTAGATATGCAGCCAGATGAACTTTGTGAAGATGAACTTATCAGTGTAATTTAGGAAAGTGGTTGTGATGAAAAGCATGAATGTTCCAGGGGAAATGACTCTGGCAAATTTTTCACATTAAAGGAACTCTTGGAGATACTTCACATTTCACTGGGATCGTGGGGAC | -0.0609 ratio |
| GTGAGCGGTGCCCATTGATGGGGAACTTGAACTGCAGTATTTTATCAATCCTGAGTCTCAGGACACTGTTTGATGGAATTAAGTAAGGTATTATGTGTTAAAGCCTGTGTGGCTTTCCCTTGTTTACTTTGGGGGAAAGGATGACAGGGGCATATACAGTGTCTCAGTGCTAATACTCCATTATAGATTAACTCGGAGTGTCGGGAGATGGCTCACATTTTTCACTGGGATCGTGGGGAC | 0.428 ratio |
| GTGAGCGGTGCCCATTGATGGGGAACATCTAATCCATACCAAGGATTCCCATGGGGAAACTGTTATCTCTCAACTCAGTGAGGGCTATTGACAAAGACCAGTGCTCTTTCTTCTCTGTAGGTAATCTGTGACTCATGCAAGCCTGAGGGAGAAAATACAGTATATCTAAGAGTTAAGACCTCCCAGCTTCACATTCTGTTATAGCAGCTGCTTCATGCCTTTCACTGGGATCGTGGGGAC | -0.0237 ratio |
| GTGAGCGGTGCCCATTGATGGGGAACATATGACAAAAGGCATGCATGTGACTTTATTTTTTCAATGGCTACTTTTCTTCTTAAATCAGGCTCCCTGATTTTAACTAAAAAATAAATAAGTAAACAAGAAAACACTGGGTTACTCTCAAAGAGATCACATTTTTAAAAACTCAAATGATTTCCTACAGGCAGTCTGTTTTGCAGTGTATTTTTTTTTCTTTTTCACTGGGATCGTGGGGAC | 0.381 ratio |
| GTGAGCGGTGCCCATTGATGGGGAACCCAGGGACAATGTGCAGTTGTTGGTCCTGGGTCTTTGACAGACTCCAGGTCAAAGGCAAGACACGGTCAGAAGGGAAAGGATCAAGTCTGTGAGCAAACACCATCAGCCTTGCAATTTGATGGTGGCCTCAAGGAGACATTGGGCGTGTGTTTAAACAAGCAAGGAAGGCAGCTGTACAAGTGCCCTAATCTGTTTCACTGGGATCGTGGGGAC | 0.24 ratio |
| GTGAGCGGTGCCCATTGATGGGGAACCCAGGGACAATGTGCAGTTGTTGGTCCTGGGTCTTTGACAGACTCCAGGTCAAAGGCAAGACACCGTGAGAAGGGAAAGGATCAAGTCTGTGAGCAAACACCATCAGCCTTGCAATTTGATGGTGGCCTCAAGGAGACATTGGGCGTGTGTTTAAACAAGCAAGGAAGGCAGCTGTACAAGTGCCCTAATCTGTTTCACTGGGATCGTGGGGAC | 0.213 ratio |
| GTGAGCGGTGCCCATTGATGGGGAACATCTTCCCCCTCTTCCTTGCCCCACCAGCTCACCTTCCCGGGTTGTTTACTTTGAGCAAAGTAAACAAAGCCGGCATTCGTTAACCCTCTTCACGCGCATACTGCACATTGGTCTGGATCTAACATGGTCCTTTGGCGACGCCAGGCTCCGGGAGAGCAAAGCACCGTGTCAGGGCCATGATCCGGGGTGGCCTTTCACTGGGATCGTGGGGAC | 0.538 ratio |

Study 4 — method: two-hybrid; reference: out of 4 tests; direction: higher = firmer interaction
Partner: ARF14 497-605 (Arabidopsis thaliana, UniProt Q9LQE8)
B1: ARF11 500-622 (Arabidopsis thaliana, UniProt Q9ZPY6); chain SPKEQKQQTSTRSRIKVQMQGTAVGRAVDLTLLRSYDELIKELEKMFEIEGELSPKDKWAIVFTDDEGDRMLVGDDPWNEFCKMAKKLFIYPSDEVKKMRSKSLLGDKGTIVNLESDQRTVHV
B2: ARF5 788-902 (Arabidopsis thaliana, UniProt P93024); chain ATPRVRTYTKVQKTGSVGRSIDVTSFKDYEELKSAIECMFGLEGLLTHPQSSGWKLVYVDYESDVLLVGDDPWEEFVGCVRCIRILSPTEVQQMSEEGMKLLNSAGINDLKTSVS
B3: ARF7 1030-1164 (Arabidopsis thaliana, UniProt P93022); chain PAQTQRMRTYTKVQKRGSVGRSIDVNRYRGYDELRHDLARMFGIEGQLEDPQTSDWKLVYVDHENDILLVGDDPWEEFVNCVQSIKILSSAEVQQMSLDGNFAGVPVTNQACSGGDSGNAWRGHYDDNSATSFNR
B4: ARF6 790-935 (Arabidopsis thaliana, UniProt Q9ZTX8); chain SENPQSNTFVKVYKSGSFGRSLDISKFSSYHELRSELARMFGLEGQLEDPVRSGWQLVFVDRENDVLLLGDDPWPEFVSSVWCIKILSPQEVQQMGKRGLELLNSAPSSNNVDKLPSNGNCDDFGNRSDPRNLGNGIASVGGSFNY
B5: ARF10 575-693 (Arabidopsis thaliana, UniProt Q9SKN5); chain LQGLETGHCKVFMESEDVGRTLDLSVIGSYQELYRKLAEMFHIEERSDLLTHVVYRDANGVIKRIGDEPFSDFMKATKRLTIKMDIGGDNVRKTWITGIRTGENGIDASTKTGPLSIFA
B6: IAA32 (Arabidopsis thaliana, UniProt Q8RYC6); chain MDPNTPADFFKGSSKFHTYYSQTKKGGGVIDLGLSLRTIQHETYLPPARMIGLDGYGELIDWSQPSYNSITQLKSEDTGHQRLAQGYYNNEGESRGKYAYVKVNLDGLVVGRKVCLVDQGAYATLALQLNDMFGMQTVSGLRLFQTESEFSLVYRDREGIWRNVGDVPWKEFVESVDRMRIARRNDALLPF
B7: IAA34 (Arabidopsis thaliana, UniProt Q9C5X0); chain MYCSDPPHPLHLVASDKQQKDHKLILSWKKPTMDSDPLGVFPNSPKYHPYYSQTTEFGGVIDLGLSLRTIQHEIYHSSGQRYCSNEGYRRKWGYVKVTMDGLVVGRKVCVLDHGSYSTLAHQLEDMFGMQSVSGLRLFQMESEFCLVYRDEEGLWRNAGDVPWNEFIESVERLRITRRNDAVLPF
Construct (chain): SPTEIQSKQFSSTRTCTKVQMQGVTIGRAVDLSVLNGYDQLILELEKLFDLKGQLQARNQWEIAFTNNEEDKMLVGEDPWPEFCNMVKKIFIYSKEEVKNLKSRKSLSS
| Molecule | positive tests |
| --- | --- |
| B1 (ARF11 500-622) | 0 |
| B2 (ARF5 788-902) | 0 |
| B3 (ARF7 1030-1164) | 1 |
| B4 (ARF6 790-935) | 0 |
| B5 (ARF10 575-693) | 0 |
| B6 (IAA32) | 0 |
| B7 (IAA34) | 0 |

Study 5 — target: UBE2T UBC core domain (UniProt Q9NPD8); method: yeast two-hybrid; medium: yeast; notes: mostly zero background; reference: not given; direction: higher = stronger interaction
Sequence of UniProt Q9NPD8 (whole entry, looked up): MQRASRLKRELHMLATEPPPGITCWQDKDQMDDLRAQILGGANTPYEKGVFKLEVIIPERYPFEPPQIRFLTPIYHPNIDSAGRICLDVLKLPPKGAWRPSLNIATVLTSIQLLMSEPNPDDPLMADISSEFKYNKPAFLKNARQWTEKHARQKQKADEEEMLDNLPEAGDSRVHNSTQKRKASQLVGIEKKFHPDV
B8: DZIP3 RING domain (UniProt Q86Y13); chain PDEEEEEEEPCVICHENLSPENLSVLPCAHKFHAQCIRPWLMQQGTCPTCRLHVLLPEEFP
B9: RNF121 RING domain (UniProt Q9H920); chain MPTKHLSDSVCAVCGQQIFVDVSEEGIIENTYRLSCNHVFHEFCIRGWCIVGKKQTCPYCKEKVDLKRMFS
B10: MAP3K1 RING domain (UniProt Q13233); chain NSIKDEEEQMCPICLLGMLDEESLTVCEDGCRNKLHHHCMSIWAEECRRNREPLICPLCRSKWRSHDFYS
B11: TRIM62 RING domain (UniProt Q9BVG3); chain MACSLKDELLCSICLSIYQDPVSLGCEHYFCRRCITEHWVRQEAQGARDCPECRRTFAEPALAP
B12: SH3RF1 RING domain (UniProt Q7Z6J0); chain DESALLDLLECPVCLERLDASAKVLPCQHTFCKRCLLGIVGSRNELRCPECRTLVGSGVEEL
B13: RFWD3 RING domain (UniProt Q6PCD5); chain ASMDEEEGDTCTICLEQWTNAGDHRLSALRCGHLFGYRCISTWLKGQVRKCPQCNKKARHSDIVV
B14: DTX2 RING domain (UniProt Q86UW9); chain EELKVPPDEDCIICMEKLSTASGYSDVTDSKAIGSLAVGHLTKCSHAFHLLCLLAMYCNGNKDGSLQCPSCKTIYGEKTGTQ
B15: RNF19A RING domain (UniProt Q9NV58); chain ISKQIGDFIECPLCLLRHSKDRFPDIMTCHHRSCVDCLRQYLRIEISESRVNISCPECTERFNPHDIR
B16: RNF133 RING domain (UniProt Q8WVZ7); chain DEEINPNGDSCVICFERYKPNDIVRILTCKHFFHKNCIDPWILPHGTCPICKCDILKVLGIQ
| Molecule | lacZ reporter activity |
| --- | --- |
| B8 (DZIP3 RING domain) | 0 |
| B9 (RNF121 RING domain) | 0 |
| B10 (MAP3K1 RING domain) | 0 |
| AVPSGLEENLCKICMDSPIDCVLLECGHMVTCTKCGKRMNECPICRQYVIRAVHVF (RFFL RING domain (UniProt Q8WZ73)) | 0 |
| B11 (TRIM62 RING domain) | 0 |
| B12 (SH3RF1 RING domain) | 0 |
| B13 (RFWD3 RING domain) | 0 |
| B14 (DTX2 RING domain) | 0 |
| FDGDVDPDLKCALCHKVLEDPLTTPCGHVFCAGCVLPWVVQEGSCPARCRGRLSAKELN (PDZRN3 RING domain (UniProt Q9UPQ7)) | 0 |
| B15 (RNF19A RING domain) | 0 |
| B16 (RNF133 RING domain) | 0 |

For quick reference, copied from above (study 5):
| Molecule | lacZ reporter activity |
| --- | --- |
| B10 (MAP3K1 RING domain) | 0 |
| AVPSGLEENLCKICMDSPIDCVLLECGHMVTCTKCGKRMNECPICRQYVIRAVHVF (RFFL RING domain (UniProt Q8WZ73)) | 0 |
| B11 (TRIM62 RING domain) | 0 |
